# Measurements gathered from unrelated publications.
# Every numbered part comes from another study and shows a few of its results, in no order.
# UniProt P10721, sequence (whole entry, unmodified, looked up): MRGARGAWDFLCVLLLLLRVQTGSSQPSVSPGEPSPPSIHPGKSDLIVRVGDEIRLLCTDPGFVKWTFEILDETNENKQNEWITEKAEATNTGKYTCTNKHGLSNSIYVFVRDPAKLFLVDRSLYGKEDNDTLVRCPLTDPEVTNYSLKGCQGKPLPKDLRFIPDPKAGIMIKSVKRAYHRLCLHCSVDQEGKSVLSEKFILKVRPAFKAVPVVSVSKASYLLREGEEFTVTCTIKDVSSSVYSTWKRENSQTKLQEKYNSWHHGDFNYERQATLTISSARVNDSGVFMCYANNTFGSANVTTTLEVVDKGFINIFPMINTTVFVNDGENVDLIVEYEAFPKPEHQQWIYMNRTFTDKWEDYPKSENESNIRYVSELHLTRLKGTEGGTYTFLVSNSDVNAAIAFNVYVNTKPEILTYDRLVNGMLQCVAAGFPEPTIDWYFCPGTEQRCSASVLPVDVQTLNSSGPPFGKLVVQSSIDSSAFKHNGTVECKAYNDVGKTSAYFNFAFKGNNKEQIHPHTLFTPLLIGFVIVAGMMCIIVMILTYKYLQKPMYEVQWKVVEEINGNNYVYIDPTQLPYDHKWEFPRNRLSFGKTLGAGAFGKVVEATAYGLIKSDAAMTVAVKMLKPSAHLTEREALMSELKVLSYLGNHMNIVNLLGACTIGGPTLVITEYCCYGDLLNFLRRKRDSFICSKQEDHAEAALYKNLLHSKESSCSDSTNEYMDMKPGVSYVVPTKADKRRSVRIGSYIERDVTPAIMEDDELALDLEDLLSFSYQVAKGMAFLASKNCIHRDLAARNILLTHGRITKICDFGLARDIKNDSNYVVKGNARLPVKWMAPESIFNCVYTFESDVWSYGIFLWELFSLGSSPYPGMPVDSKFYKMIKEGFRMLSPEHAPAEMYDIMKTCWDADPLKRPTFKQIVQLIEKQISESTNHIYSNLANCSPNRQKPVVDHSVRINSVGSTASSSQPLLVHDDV
# UniProt P54764, sequence (whole entry, looked up): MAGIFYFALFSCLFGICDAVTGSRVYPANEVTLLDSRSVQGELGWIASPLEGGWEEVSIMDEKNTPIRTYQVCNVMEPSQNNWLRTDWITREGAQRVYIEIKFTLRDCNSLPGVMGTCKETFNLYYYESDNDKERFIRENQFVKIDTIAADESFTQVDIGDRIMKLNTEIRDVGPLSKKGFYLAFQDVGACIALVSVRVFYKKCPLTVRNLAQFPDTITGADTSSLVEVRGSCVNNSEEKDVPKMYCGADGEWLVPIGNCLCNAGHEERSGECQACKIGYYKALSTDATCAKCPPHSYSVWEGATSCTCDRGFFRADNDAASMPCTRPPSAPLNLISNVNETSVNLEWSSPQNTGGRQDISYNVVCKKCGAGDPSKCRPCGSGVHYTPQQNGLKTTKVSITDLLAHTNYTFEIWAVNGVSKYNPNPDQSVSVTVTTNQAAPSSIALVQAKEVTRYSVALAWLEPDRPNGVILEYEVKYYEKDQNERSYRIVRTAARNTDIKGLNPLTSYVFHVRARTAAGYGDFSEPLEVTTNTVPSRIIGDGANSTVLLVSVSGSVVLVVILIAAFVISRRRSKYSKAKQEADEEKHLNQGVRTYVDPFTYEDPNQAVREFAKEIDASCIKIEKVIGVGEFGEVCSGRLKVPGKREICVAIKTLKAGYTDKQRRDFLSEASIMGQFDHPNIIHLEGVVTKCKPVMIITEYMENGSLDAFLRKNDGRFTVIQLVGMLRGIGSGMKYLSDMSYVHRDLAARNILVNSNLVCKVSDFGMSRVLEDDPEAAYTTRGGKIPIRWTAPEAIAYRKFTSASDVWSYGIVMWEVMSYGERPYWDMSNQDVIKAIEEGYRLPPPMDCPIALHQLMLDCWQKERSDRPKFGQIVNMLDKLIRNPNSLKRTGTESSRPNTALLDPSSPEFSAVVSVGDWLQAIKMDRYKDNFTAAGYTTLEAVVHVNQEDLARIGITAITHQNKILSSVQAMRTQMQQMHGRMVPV
# UniProt Q8NEB9, sequence (whole entry, looked up): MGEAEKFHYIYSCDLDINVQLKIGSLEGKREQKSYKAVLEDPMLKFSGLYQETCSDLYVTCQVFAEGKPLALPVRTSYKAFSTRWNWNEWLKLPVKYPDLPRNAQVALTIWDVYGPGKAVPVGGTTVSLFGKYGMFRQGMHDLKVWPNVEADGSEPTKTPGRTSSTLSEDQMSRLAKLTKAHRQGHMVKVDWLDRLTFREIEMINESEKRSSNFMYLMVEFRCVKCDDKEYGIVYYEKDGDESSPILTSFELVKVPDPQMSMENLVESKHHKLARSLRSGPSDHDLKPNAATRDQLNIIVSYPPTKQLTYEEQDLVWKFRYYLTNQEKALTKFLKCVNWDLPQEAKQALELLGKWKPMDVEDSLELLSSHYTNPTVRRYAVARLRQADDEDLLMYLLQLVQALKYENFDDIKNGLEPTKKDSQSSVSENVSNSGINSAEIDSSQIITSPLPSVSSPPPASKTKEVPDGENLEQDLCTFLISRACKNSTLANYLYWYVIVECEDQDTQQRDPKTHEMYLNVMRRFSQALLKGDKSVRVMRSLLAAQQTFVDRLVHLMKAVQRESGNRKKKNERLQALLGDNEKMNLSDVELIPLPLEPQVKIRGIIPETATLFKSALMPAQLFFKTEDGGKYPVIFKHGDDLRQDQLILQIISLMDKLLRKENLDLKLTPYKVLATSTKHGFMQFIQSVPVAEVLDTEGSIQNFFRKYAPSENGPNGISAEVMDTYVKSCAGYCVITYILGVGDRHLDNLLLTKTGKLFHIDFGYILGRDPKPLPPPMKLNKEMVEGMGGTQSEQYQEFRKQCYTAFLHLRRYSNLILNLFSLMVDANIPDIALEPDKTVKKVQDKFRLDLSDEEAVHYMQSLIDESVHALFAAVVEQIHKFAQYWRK
# UniProt Q15746, sequence (whole entry, looked up): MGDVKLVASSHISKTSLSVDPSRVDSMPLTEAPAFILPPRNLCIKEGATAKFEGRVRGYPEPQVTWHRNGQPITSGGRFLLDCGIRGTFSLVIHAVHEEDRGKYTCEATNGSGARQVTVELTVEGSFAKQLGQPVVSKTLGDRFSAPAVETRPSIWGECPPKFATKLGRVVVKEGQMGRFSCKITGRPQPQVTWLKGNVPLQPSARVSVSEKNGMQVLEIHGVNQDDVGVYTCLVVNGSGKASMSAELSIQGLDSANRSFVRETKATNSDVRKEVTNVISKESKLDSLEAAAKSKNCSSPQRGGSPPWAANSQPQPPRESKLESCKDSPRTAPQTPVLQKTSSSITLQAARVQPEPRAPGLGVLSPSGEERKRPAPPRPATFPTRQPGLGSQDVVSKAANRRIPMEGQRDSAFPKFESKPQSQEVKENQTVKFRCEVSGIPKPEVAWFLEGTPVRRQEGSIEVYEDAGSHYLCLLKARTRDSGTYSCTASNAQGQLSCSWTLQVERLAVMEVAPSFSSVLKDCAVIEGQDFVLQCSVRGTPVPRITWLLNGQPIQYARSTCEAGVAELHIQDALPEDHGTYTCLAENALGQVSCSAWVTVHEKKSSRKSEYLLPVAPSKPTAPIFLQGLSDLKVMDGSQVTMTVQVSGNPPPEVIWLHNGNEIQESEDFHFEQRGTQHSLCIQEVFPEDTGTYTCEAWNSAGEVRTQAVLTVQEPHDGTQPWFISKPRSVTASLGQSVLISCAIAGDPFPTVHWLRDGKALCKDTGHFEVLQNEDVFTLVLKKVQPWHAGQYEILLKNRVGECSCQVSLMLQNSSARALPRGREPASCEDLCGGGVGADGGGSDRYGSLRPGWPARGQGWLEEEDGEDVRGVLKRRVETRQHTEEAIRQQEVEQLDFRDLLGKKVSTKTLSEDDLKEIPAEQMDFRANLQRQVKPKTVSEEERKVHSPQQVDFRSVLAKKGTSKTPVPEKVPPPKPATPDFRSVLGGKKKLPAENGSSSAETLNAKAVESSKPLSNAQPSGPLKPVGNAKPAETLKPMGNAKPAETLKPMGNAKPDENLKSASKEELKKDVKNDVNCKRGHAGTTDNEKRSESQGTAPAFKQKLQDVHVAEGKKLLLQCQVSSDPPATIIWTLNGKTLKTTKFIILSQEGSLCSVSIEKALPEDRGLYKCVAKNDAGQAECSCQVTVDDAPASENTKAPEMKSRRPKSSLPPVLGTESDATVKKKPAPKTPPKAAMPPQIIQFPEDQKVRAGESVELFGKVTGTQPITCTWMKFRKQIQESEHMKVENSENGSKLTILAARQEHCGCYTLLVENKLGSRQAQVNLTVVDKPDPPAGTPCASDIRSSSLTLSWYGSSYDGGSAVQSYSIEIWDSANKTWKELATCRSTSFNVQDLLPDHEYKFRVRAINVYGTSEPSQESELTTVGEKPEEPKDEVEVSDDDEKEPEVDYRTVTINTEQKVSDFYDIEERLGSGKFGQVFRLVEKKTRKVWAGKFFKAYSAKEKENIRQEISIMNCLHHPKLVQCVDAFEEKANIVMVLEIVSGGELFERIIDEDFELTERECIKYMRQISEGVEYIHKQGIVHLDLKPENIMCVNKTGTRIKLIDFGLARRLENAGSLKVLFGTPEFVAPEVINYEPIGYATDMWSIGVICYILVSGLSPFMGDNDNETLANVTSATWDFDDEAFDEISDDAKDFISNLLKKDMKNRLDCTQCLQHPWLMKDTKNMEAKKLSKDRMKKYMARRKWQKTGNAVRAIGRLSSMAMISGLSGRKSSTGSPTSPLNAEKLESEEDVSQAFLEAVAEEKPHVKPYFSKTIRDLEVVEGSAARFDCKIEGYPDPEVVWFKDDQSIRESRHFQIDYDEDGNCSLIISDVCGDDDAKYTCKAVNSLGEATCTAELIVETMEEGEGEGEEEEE

# Set 1
# Target: Prothrombin, mature alpha-thrombin (F2, Homo sapiens, UniProt P00734)
# Method: aptamer microarray, sandwich
# Molecule type: DNA with 2'F-ANA
# Sample: in vitro
# Tested at: 200 nM
# Setting: whole 15-mer aptamer, many near background
# Together with: Cy3 exosite-II aptamer, 400 nM
# Reading: higher = stronger binding
# Strand: GGTTGGTGTGGTTGG
Modification,mean fluorescence intensity [a.u.]
2'F-ANA at 3 4 10 11 13 14,200
2'F-ANA at 13,457
2'F-ANA at 1 4 5 6 7 8 9 10 12 14,48.5
2'F-ANA at 2 3 4 5 7 8 9 10 11 12 13,116
2'F-ANA at 5 6 7 8 10 13 14,44.1
2'F-ANA at 4 5 10 12 13 14,116
2'F-ANA at 2 3 5 7,118
2'F-ANA at 2 3 4 5 6 7 8 10 11 14 15,50.5

# Set 2
# Host: human
# Sample: microsomes or S9
# Tested at: 2 µM
# Time: 0.5 h
SMILES,remaining compound [%]
CS(=O)(=O)N1CCC[C@H]1C(=O)N[C@H]1C[C@H](c2cc(=O)[nH]c(C3CC3)n2)C1,> 99
Oc1cc(O)c2sc3nc(-c4ccccc4Cl)ccc3c2n1,> 99
Brc1ccc(-c2n[nH]c(-c3ccccc3)c2-c2ncc[nH]2)cc1,85.9
COc1cc(=O)[nH]cc1C(=O)N[C@@H]1CCO[C@H]1c1c(C)nn(C)c1C,78.1

# Set 3
# Target: RING finger protein unkempt homolog, zinc fingers 1-6, SBP tag (UNK, Homo sapiens, UniProt Q9C0B0, residues 30-357)
# UniProt Q9C0B0, sequence (30-357, looked up): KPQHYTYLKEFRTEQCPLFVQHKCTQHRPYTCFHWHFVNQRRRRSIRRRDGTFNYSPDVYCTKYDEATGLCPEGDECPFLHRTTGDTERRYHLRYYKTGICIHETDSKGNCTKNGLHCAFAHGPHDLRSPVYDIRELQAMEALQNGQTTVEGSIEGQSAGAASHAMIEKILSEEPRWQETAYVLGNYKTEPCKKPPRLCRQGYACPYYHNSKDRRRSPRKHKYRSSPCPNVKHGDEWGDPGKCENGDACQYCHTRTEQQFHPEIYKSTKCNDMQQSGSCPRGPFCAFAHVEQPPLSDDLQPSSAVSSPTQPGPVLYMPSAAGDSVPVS
# Method: RNA Bind-n-Seq
# Molecule type: RNA
# Sample: in vitro
# Tested at: 100 nM
# Setting: RNA with constant flanks, vertebrate orthologous sites, ends assumed
# Reference: input RNA pool
# Reading: higher = stronger binding
Strand,bound/input enrichment [ratio]
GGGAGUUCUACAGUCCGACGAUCGGUGGGUCUGGGAUAGAAGGGAGGGAAGGGGCAGGAUAUGUGGAAUCUAGGGUAUAUGGGGAGGUGGGGGCAGUUAGUUCUAAGUGGGCUUUAUGUUACCUAUUGUGGGGGUGAGGACAGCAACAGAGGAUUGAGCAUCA,1.26
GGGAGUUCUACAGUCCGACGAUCAGCAGCUCAAGGAUUCAGAACUGGUUUUGCAAAUGUCCCAAGCAGAUAUGGAACAAACGCACGUGGUCAGCCCCGACCGUAAUAAACACCAUUAUUUAUUAUACUUAAGGGUAUUGACUUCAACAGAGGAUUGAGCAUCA,0.316
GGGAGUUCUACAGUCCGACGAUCGCACAUGCCGCUGUCACCAAAAGCAGACUACCAUAUUUCAGAUUUCAUCCAGAGUCGUUCUGGUGUUUCCUAUUCCCUACCCUUCCCACUACUUUCAAUGAUGAAGUAUCCUAAGUUCUCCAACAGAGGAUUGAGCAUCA,0.966
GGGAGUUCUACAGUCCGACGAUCGAUUUGGACCUUGGAGCCGAACCAGGGAACUAGCAAAAGUAAAGCAGACUUGUAAAAGUAUAGCCAAAUGCAGCUGCACCACAACAGUCCCACCACAUUAGCAGCUGUGUUAAAGUAUUUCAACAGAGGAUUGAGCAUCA,0.459
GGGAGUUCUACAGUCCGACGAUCUGUCUUGGUUUGGGGUAGAGGGGAGGGAGGGGCAGGACAGUGUGGAAUCUCUAGGGUGUAUGGGUAGAUAGGCUGCACAGUUAGUUCUAAUUGGGCCUUUAUGUUAAAAAAUCUCUGGGGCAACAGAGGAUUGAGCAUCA,0.785
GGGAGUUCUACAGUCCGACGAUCCGUCCUUUCGCACUGGCCCUGGCCAAGAUGGUGGACUGAGGUUUCAUUGAGGACCUGCAUUUCAAAGUUUUUUAAAUCAUUGUACAGGAAGCGACGUGGCUGAAACAGCCUCUCACAGUUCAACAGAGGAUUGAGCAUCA,0.374
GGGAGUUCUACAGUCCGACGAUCUUGUCUCGGGAGAGCCGGCCGGGGUUGGCACUCAUCCCACUUGCCCUUUGCUUUAUUUUCCUCGGGGCUGGGGUGAGGGUCGCGGCGCCCACUGAGCCUGAGGCGCGAGCUUGUGUGAUUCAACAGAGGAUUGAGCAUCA,0.359
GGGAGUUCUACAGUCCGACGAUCACCUCCAAUAGGCUAAUUCAGGGAAAGGAAACAGGCUUCAGGGAAUAUAAAUUAAUAUAGUAGUGGUCAUGAAGAAUAACUUUGAUAUAACUGAUUUGGGGGAGUGAUGGCAACUUGUGACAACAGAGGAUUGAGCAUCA,0.906

# Set 4
# SMILES: COc1ccc2c(c1)O[C@H](c1ccc(OC)c(OC)c1)C[C@@H]2NC(=O)C1(c2ccc3c(c2)OC(F)(F)O3)CC1
# Effect on: cell-free assay
# Method: competition with immobilised ligand
# Tested at: 1 µM
target,remaining binding
"CDK14 (Homo sapiens, UniProt O94921)",98%
"MYLK (Homo sapiens, UniProt Q15746)",100%
"STK16 (Homo sapiens, UniProt O75716)",100%
"RIPK1 (Homo sapiens, UniProt Q13546)",100%
"EPHA4 (Homo sapiens, UniProt P54764)",91%
"CAMK1G (Homo sapiens, UniProt Q96NX5)",100%
"PIK3C3 (Homo sapiens, UniProt Q8NEB9)",88%
"MAP2K1 (Homo sapiens, UniProt Q02750)",100%
"NTRK2 (Homo sapiens, UniProt Q16620)",100%
"TNK2 (Homo sapiens, UniProt Q07912)",99%
"KIT (Homo sapiens, UniProt P10721, D816V)",99%

# Excerpt of the above (set 4):
target,remaining binding
"RIPK1 (Homo sapiens, UniProt Q13546)",100%
"EPHA4 (Homo sapiens, UniProt P54764)",91%
"CAMK1G (Homo sapiens, UniProt Q96NX5)",100%
"PIK3C3 (Homo sapiens, UniProt Q8NEB9)",88%
"MAP2K1 (Homo sapiens, UniProt Q02750)",100%
